Experimental data of several laboratories.
Lines come from different studies, so protocols differ. Values joined by “and” are separate records of one study, mostly repeats; a detail may differ.

CCc1nc(N)nc(N)c1C#C[C@H](C)c1cc(-c2ccncc2)ccc1OC — half-life (mouse, plasma; intraperitoneal, 16 mg/kg, single dose): 0.33 h
CCC(=C(c1ccc(Cl)cc1)c1ccc(OCCN2CCOCC2)cc1)c1ccc(OC)cc1 — half-life (female C57BL/6 mouse, plasma; oral, 400 mg/kg, single dose): 8.2 h
CCc1nc(N)nc(N)c1C#C[C@H](C)c1cc(-c2cc(C)nc(C)c2)ccc1Cl — half-life (mouse, plasma; intraperitoneal, 5 mg/kg): 1.14 h and 1.15 h
O=c1c2cc(-c3ccc(Cl)cc3)nc(-c3cccnc3)c2ncn1C1CCC(O)CC1 (stereo not drawn) — half-life (BALB/c mouse, plasma; oral, 300 mg/kg, single dose): 31.5 h
CC(=O)N[C@@H](Cc1ccc(O)cc1)CN(CC(=O)N[C@@H](CCCCN)CN(CC(=O)N[C@@H](Cc1ccccc1)CN(CC(=O)N[C@H]1CCCCNc2c(F)c(F)c(c(F)c2F)S(=O)(=O)c2c(F)c(F)c(c(F)c2F)NCCCC[C@@H](CN(CC(=O)N[C@@H](C)CN(CC(N)=O)S(C)(=O)=O)S(C)(=O)=O)NC(=O)CN(S(=O)(=O)CC(C)C)C[C@H](CC(C)C)NC(=O)CN(S(=O)(=O)CCN)C1)S(=O)(=O)CC(C)C)S(=O)(=O)CCN)S(C)(=O)=O — half-life (C57BL/6 mouse, plasma; oral, 50 mg/kg): 3 h
C=C(C)C(=O)Nc1ccc(-c2c(-c3ccc(Oc4nccc(C)n4)cc3)c3c(N)ncnc3n2C)cc1 — half-life (nude mouse, plasma; intravenous): 1.2 h
Cc1ccc(CN2C(=O)/C(=N\c3ccc(Cl)cc3Br)c3ccccc32)cc1 — half-life (C57BL/6 mouse, plasma; intraperitoneal, 20 mg/kg): 9.61 h
CN1CC[C@H](c2c(O)cc(O)c3c(=O)cc(/C=C/c4c(Cl)cccc4Cl)oc23)[C@H](O)C1 — half-life (male BALB/c mouse, plasma; oral, 50 mg/kg): 5.06 h
CCCCC(CC)CNC(=N)NC(=N)NCCCCCCCCNC(=N)NC(=N)NCC(CC)CCCC (stereo not drawn) — half-life (female BALB/c mouse, plasma; intraperitoneal, 5 mg/kg, single dose): 5.15 h
CCNC(=O)c1noc(-c2cc(C(C)C)c(O)cc2O)c1NC(=O)CCN1CCOCC1 — half-life (nude mouse, plasma; intraperitoneal, 80 mg/kg, single dose, tumour-bearing): 5.8 h
C[N+]1(CC(=O)OC2CCCCCCCCCCC2)CCCCC1 — half-life (mouse, plasma; intraperitoneal, 1 mg/kg, single dose): 0.8 h
C[C@H]1CN(C(=O)c2cn(-c3ccnc(N)n3)c3cc(C#CC4(O)CCCCC4)ccc23)CCN1 — half-life (CD-1 mouse, plasma; intravenous, 1 mg/kg): 1.41 h
Cc1nc(N[C@@H](C)c2ccc(-c3nc(C4CC4)no3)cc2)c2cc(C)oc2n1 — half-life (mouse, plasma; oral, 10 mg/kg): > 12 h
COC(=O)c1ccc2c(c1)NC(=O)/C2=C(\Nc1ccc2c(c1)CCN2C(=O)CN1CCOCC1)c1ccccc1 — half-life (CD-1 mouse, plasma; intravenous, 10 mg/kg): 0.8 h
NC(=O)c1c(F)ccc(OCc2nc3cc(Cl)cnc3s2)c1F — half-life (mouse, plasma; intravenous, 3 mg/kg): 0.617 h
CC1=C(/C=C/C(=O)N2CCN(C(N)=O)CC2)C(C)(C)CCC1 — half-life (female mouse, plasma; oral, 120 mg/kg, single dose): 1.09 h
CCC/C(=C\C1=C(F)C(=O)c2ccccc2C1=O)C(=O)N(CC)CC — half-life (mouse, plasma; oral, 25 mg/kg): 3.7 h
CC(C)Cn1c(SCC(=O)N2CCc3ccccc3C2)nc2cc(Cl)ccc2c1=O — half-life (male C57BL/6 mouse, plasma; intraperitoneal, 10 mg/kg): 6.17 h
NS(=O)(=O)NCC(F)(F)c1ccccc1F — half-life (mouse, brain; oral, 5 mg/kg): 4.5 h
COc1cc2c(cc1OC)CC(=O)N(C[C@H]1CCCN(CCOc3ccc(F)cc3)C1)CC2 — half-life (male C57BL/6 mouse, plasma; intraperitoneal, 20 mg/kg): 0.88 h
CCCC[C@@H]1NC(=O)[C@H](Cc2ccc(O)cc2)NC(=O)[C@@H]2CCCN2C(=O)[C@H](CC(=O)O)NC(=O)[C@H](C)NC(=O)[C@H](Cc2ccccc2)NC(=O)[C@@H]2CSCCC(=O)N3CN(CN(C3)C(=O)CCSC[C@@H](C(=O)N[C@@H](C)C(N)=O)NC1=O)C(=O)CCSC[C@H](NC(C)=O)C(=O)N[C@@H](CC(C)(C)C)C(=O)N1CCC[C@H]1C(=O)N[C@@H](CCC(=O)O)C(=O)N[C@H](CCCCNC(=O)CCc1cn(CCOCCOCCOCCN(CCOCCOCCOCCC(=O)N[C@@H](C)C(=O)N[C@@H](CCCCNC(=N)N)C(=O)N[C@@H](CC(=O)O)C(=O)N[C@H]3CSCCC(=O)N4CN5CN(C4)C(=O)CCSC[C@H](NC(=O)[C@H](CC(C)C)NC(=O)[C@@H]4CCCN4C(=O)[C@H](CC(N)=O)NC(=O)[C@H](C(C)C)NC(=O)[C@H](CC(C)C)NC(=O)[C@@H]4C[C@@H](O)CN4C3=O)C(=O)N[C@@H](CC(C)C)C(=O)N[C@@H](Cc3c[nH]cn3)C(=O)N3CCC[C@H]3C(=O)N[C@H](CC(=O)O)C(=O)N[C@@H](Cc3c[nH]c4ccccc34)C(=O)N[C@@H](CCCCNC(=N)N)C(=O)N[C@H](C(N)=O)CSCCC5=O)CCOCCOCCOCCn3cc(CCC(=O)NCCCC[C@H]4NC(=O)[C@H](CCC(=O)O)NC(=O)[C@@H]5CCCN5C(=O)[C@H](CC(C)(C)C)NC(=O)[C@@H](NC(C)=O)CSCCC(=O)N5CN6CN(C5)C(=O)CCSC[C@H](NC(=O)[C@H](Cc5ccc(O)cc5)NC(=O)[C@@H]5CCCN5C4=O)C(=O)N[C@@H](Cc4ccccc4)C(=O)N[C@@H](C)C(=O)N[C@@H](CC(=O)O)C(=O)N4CCC[C@H]4C(=O)N[C@@H](Cc4ccc(O)cc4)C(=O)N[C@@H](CCCC)C(=O)N[C@H](C(=O)N[C@@H](C)C(N)=O)CSCCC6=O)nn3)nn1)C(=O)N1CCC[C@H]1C(=O)N[C@@H](Cc1ccc(O)cc1)C(=O)N2 — half-life (mouse, plasma; intraperitoneal, 15 mg/kg): ~2 h
O=C1OC2(c3ccccc31)c1cc(I)c(O)c(I)c1Oc1c2cc(I)c(O)c1I — half-life (female C57BL/6 mouse, plasma; intraperitoneal, 50 mg/kg): 2 h
CN1CCC(N[C@@H]2CCc3[nH]c4c(C(N)=O)ccc(-c5ccccc5Cl)c4c3C2)CC1 — half-life (mouse, plasma; oral, 10 mg/kg): 12 h and 6.95 h
O=C(c1ccccc1)N1C(c2ccc(OCC3CCN(CCCF)C3)cc2)c2ccc(O)cc2CC12CC2 (stereo not drawn) — half-life (C57BL/6 mouse, serum; oral, 25 mg/kg): 4.02 h
COc1cc(N2CCN(C(=O)C3CCCN3)CC2)ccc1Nc1ncc(Cl)c(Nc2ccccc2P(C)(C)=O)n1 (stereo not drawn) — half-life (mouse, plasma; oral, 10 mg/kg): 3.4 h
C[C@H]1CCCN1Cc1nc2cc(NC(=O)c3ccc4c(cnn4C)c3)ccc2[nH]1 — half-life (female BALB/c mouse, plasma; oral, 30 mg/kg): 0.83 h
CCOC(=O)c1nc2cc(Cl)c(Cl)cc2nc1N1CCN(C(=O)Nc2ccc(N3CCNCC3)cc2)CC1 — half-life (male mouse, plasma; intravenous, 3 mg/kg): 4.35 h
O=C1CCc2ccc(NS(=O)(=O)c3cccc(Oc4ccccc4)c3)cc2N1 — half-life (C57BL/6 mouse, brain; oral, 3 mg/kg): 3.95 h
Cc1ccc2oc(-c3c4c(N)n[nH]c(=O)c4nn3-c3ccc(NC(=O)/C=C/CN(C)C)cc3)c(C)c2c1 — half-life (mouse, plasma; intravenous, 1 mg/kg): 1.39 h
Cc1sc2c(c1C)C(c1ccc(Cl)cc1)=N[C@@H](CC(=O)NCC(=O)N1CCC3(CCC(C(=O)N4CCN(C(=O)c5cc(Cc6n[nH]c(=O)c7ccccc67)ccc5F)CC4)CC3)CC1)c1nnc(C)n1-2 — half-life (male C57BL/6 mouse, plasma; intraperitoneal, 10 mg/kg): 2.3 h
CC1=C(O)C(=O)C=C2C1=CC=C1[C@@]2(C)CC[C@@]2(C)[C@@H]3C[C@](C)(C(=O)NCCOCCOCCOCCOCC(=O)N[C@H](C(=O)N4C[C@H](O)C[C@H]4C(=O)N[C@@H](C)c4ccc(-c5scnc5C)cc4)C(C)(C)C)CC[C@]3(C)CC[C@]12C — half-life (male C57BL/6 mouse, plasma; intravenous, 2 mg/kg): 5.36 h
CCOc1c(C(C)(C)O)sc2cnc(Nc3ccc(N4CCC(N5CC6(COC6)C5)CC4)cc3OC)nc12 — half-life (male C57BL/6 mouse, plasma; oral, 30 mg/kg): 6.9 h
Cc1cc(O)cc(O)c1C(=O)c1c2c3c(c(O)cc(C)c3oc1=O)C(=O)c1c(O)cc(O)cc1-2 — half-life (male Kunming mouse, plasma; intraperitoneal, 15 mg/kg): 0.712 h
COc1ccc2c(c1)CCn1c[n+]3c(c1-2)-c1ccc(OC)cc1CC3 — half-life (male C57BL/6 mouse, plasma; intraperitoneal, 10 mg/kg, single dose): 2.3 h
O=C(O)c1ccc(O)c(CO)c1 — half-life (male C57BL/6 mouse, plasma; oral, 4 mg/kg): 1.24 h
Nc1ccn(C[C@@H](CO)OCP(=O)(O)OCCCS(=O)(=O)CCCCCCCCCCC2CCC2)c(=O)n1 — half-life (mouse, plasma; intravenous, 3 mg/kg, single dose): 0.2 h
Cc1cc(C)c(S(=O)(=O)N(CC(=O)O)c2ccc(Nc3ccnc(N4CCCC4)n3)cc2)c(C)c1 — half-life (nude mouse, tumour; intraperitoneal, 100 mg/kg, single dose, tumour-bearing): 4.05 h
COc1cc2c(Oc3ccc(Nc4nn(C)cc4C(=O)NC4CCCCC4)cc3F)ccnc2cc1OCCCCCCC(=O)NO — half-life (mouse, plasma; intraperitoneal, 10 mg/kg): 8.41 h
COc1cccc(OCCN2CCC[C@H](CN3CCc4cc(OC)c(OC)cc4CC3=O)C2)c1 — half-life (female C57BL/6 mouse, plasma; intraperitoneal, 20 mg/kg): 0.58 h
CN(C)CCNC(=O)/C=C/C(Cc1ccccc1)Nc1ccnc2cc(Cl)ccc12 (stereo not drawn) — half-life (CD-1 mouse, plasma; oral, 5 mg/kg, single dose): 8.83 h
COc1cc(OCCN2CCOCC2)cnc1-c1nc2cc(OC(F)(F)F)ccc2[nH]1 — half-life (mouse, plasma; oral, 100 mg/kg): 3.38 h
N#Cc1cnc2cc(OCC3CCNCC3)c(F)cc2c1Nc1cc(F)c(OCc2cccc(Cl)n2)cc1Cl — half-life (female CD-1 mouse, plasma; intravenous, 5 mg/kg): 8 h

For quick reference, copied from above:
CCC/C(=C\C1=C(F)C(=O)c2ccccc2C1=O)C(=O)N(CC)CC — half-life (mouse, plasma; oral, 25 mg/kg): 3.7 h
CC(C)Cn1c(SCC(=O)N2CCc3ccccc3C2)nc2cc(Cl)ccc2c1=O — half-life (male C57BL/6 mouse, plasma; intraperitoneal, 10 mg/kg): 6.17 h
NS(=O)(=O)NCC(F)(F)c1ccccc1F — half-life (mouse, brain; oral, 5 mg/kg): 4.5 h
COc1cc2c(cc1OC)CC(=O)N(C[C@H]1CCCN(CCOc3ccc(F)cc3)C1)CC2 — half-life (male C57BL/6 mouse, plasma; intraperitoneal, 20 mg/kg): 0.88 h
CCCC[C@@H]1NC(=O)[C@H](Cc2ccc(O)cc2)NC(=O)[C@@H]2CCCN2C(=O)[C@H](CC(=O)O)NC(=O)[C@H](C)NC(=O)[C@H](Cc2ccccc2)NC(=O)[C@@H]2CSCCC(=O)N3CN(CN(C3)C(=O)CCSC[C@@H](C(=O)N[C@@H](C)C(N)=O)NC1=O)C(=O)CCSC[C@H](NC(C)=O)C(=O)N[C@@H](CC(C)(C)C)C(=O)N1CCC[C@H]1C(=O)N[C@@H](CCC(=O)O)C(=O)N[C@H](CCCCNC(=O)CCc1cn(CCOCCOCCOCCN(CCOCCOCCOCCC(=O)N[C@@H](C)C(=O)N[C@@H](CCCCNC(=N)N)C(=O)N[C@@H](CC(=O)O)C(=O)N[C@H]3CSCCC(=O)N4CN5CN(C4)C(=O)CCSC[C@H](NC(=O)[C@H](CC(C)C)NC(=O)[C@@H]4CCCN4C(=O)[C@H](CC(N)=O)NC(=O)[C@H](C(C)C)NC(=O)[C@H](CC(C)C)NC(=O)[C@@H]4C[C@@H](O)CN4C3=O)C(=O)N[C@@H](CC(C)C)C(=O)N[C@@H](Cc3c[nH]cn3)C(=O)N3CCC[C@H]3C(=O)N[C@H](CC(=O)O)C(=O)N[C@@H](Cc3c[nH]c4ccccc34)C(=O)N[C@@H](CCCCNC(=N)N)C(=O)N[C@H](C(N)=O)CSCCC5=O)CCOCCOCCOCCn3cc(CCC(=O)NCCCC[C@H]4NC(=O)[C@H](CCC(=O)O)NC(=O)[C@@H]5CCCN5C(=O)[C@H](CC(C)(C)C)NC(=O)[C@@H](NC(C)=O)CSCCC(=O)N5CN6CN(C5)C(=O)CCSC[C@H](NC(=O)[C@H](Cc5ccc(O)cc5)NC(=O)[C@@H]5CCCN5C4=O)C(=O)N[C@@H](Cc4ccccc4)C(=O)N[C@@H](C)C(=O)N[C@@H](CC(=O)O)C(=O)N4CCC[C@H]4C(=O)N[C@@H](Cc4ccc(O)cc4)C(=O)N[C@@H](CCCC)C(=O)N[C@H](C(=O)N[C@@H](C)C(N)=O)CSCCC6=O)nn3)nn1)C(=O)N1CCC[C@H]1C(=O)N[C@@H](Cc1ccc(O)cc1)C(=O)N2 — half-life (mouse, plasma; intraperitoneal, 15 mg/kg): ~2 h
